{"data": "Measured values collected from several papers", "note": "Each line is one published result; not all experiments were run side by side. ± gives the spread as reported."}
{"Structure (SMILES)": "CCN(CCO)CCCC(C)Nc1ccnc2cc(Cl)ccc12 (stereo not drawn)", "test system": "newly diagnosed glioblastoma patients", "setting": "oral, 400 mg/dose, grade 1, together with: radiotherapy and temozolomide", "endpoint": "anemia patients", "result": "29%"}
{"Structure (SMILES)": "COc1cc2c(cc1OC)CN(CCc1ccc(NC(=O)c3cccc4c(=O)c5cccc(OC)c5[nH]c34)cc1)CC2", "test system": "CD-1 mouse, male, lung", "setting": "intraperitoneal, 30 mg/kg", "endpoint": "elimination rate constant", "result": "7.85e-06 s⁻¹"}
{"Structure (SMILES)": "Cn1ncc(-c2nc(N[C@H]3CC[C@H](N)CC3)ncc2Cl)c1CC1CC1", "assay": "refers to: nausea any grade", "test system": "human patients phase I", "setting": "dose not given", "endpoint": "adverse event incidence", "result": "67%"}
{"Structure (SMILES)": "Nc1nc2cc(-c3ccc4ncc(C(=O)N5CCOCC5)n4c3)ccc2o1", "test system": "human, advanced solid tumours", "setting": "100–300 mg once daily, any cause, grade ≥3", "endpoint": "elevated AST adverse events", "result": "13%"}
{"Structure (SMILES)": "Clc1cc(Cl)c(-c2cc(Cl)c(Cl)c(Cl)c2Cl)cc1Cl", "test system": "fresh water", "setting": "12 (unit not given), 20 °C, S30-2 sampler, 30 µm", "endpoint": "log K(PDMS-water)", "result": "6.67 ± 0.08"}
{"Structure (SMILES)": "CCN1CCN(Cc2ccc(Nc3ncc(F)c(-c4cc(F)c5nc6n(c5c4)[C@H](C)CCC6)n3)nc2)CC1", "test system": "advanced solid tumour patients", "setting": "dose not given, Phase Ia monotherapy", "endpoint": "Diarrhea incidence, any grade", "result": "54.2%"}
{"Structure (SMILES)": "CN1CCN(c2ccc(Nc3nccc(-c4ccncc4)n3)cc2C(F)(F)F)CC1", "test system": "zebrafish embryos", "setting": "50 µM, 5 days", "endpoint": "toxicity", "result": "5.6 ± 5.6%"}
{"Structure (SMILES)": "COc1cc(Nc2ncc(F)c(Nc3ccc4c(n3)NC(=O)C(C)(C)O4)n2)cc(OC)c1OC", "test system": "PBS", "setting": "24 h, pH 7.4, 1% DMSO", "endpoint": "solubility", "result": "1.3 µM"}
{"Structure (SMILES)": "O=[N+]([O-])c1ccc2c(c1)S(=O)(=O)C=C2", "test system": "male C57BL/6 mice, blood", "setting": "intraperitoneal, 20 mg/kg, day 8, group average", "endpoint": "red cell distribution width SD", "result": "29.5 fL"}
{"Structure (SMILES)": "CCN1[C@@H](C(=O)NC23CCC(C(=O)O)(CC2)CC3)[C@H](c2cccc(Cl)c2F)[C@]2(C(=O)Nc3cc(Cl)ccc32)C12CCCCC2", "test system": "patients with advanced solid tumours", "setting": "oral, 150 mg", "endpoint": "Headache incidence", "result": "0%"}
{"Structure (SMILES)": "CC(C)C[C@@H]1NC(=O)[C@H](CC(N)=O)NC(=O)[C@H](CCCNC(=N)N)NC(=O)[C@H]([C@@H](C)O)NC(=O)[C@@H]2CSSC[C@@H]3NC(=O)[C@H]([C@@H](C)O)NC(=O)CNC(=O)CNC(=O)[C@H](C(C)C)NC(=O)[C@@H]4CSSC[C@H](NC(=O)[C@H](CCCCN)NC(=O)[C@H](CSSC[C@H](NC(=O)[C@H](C(C)C)NC(=O)[C@@H]5CCCN5C(=O)[C@H](CC(C)C)NC1=O)C(=O)NCC(=O)N[C@@H](CCC(=O)O)C(=O)N[C@@H]([C@@H](C)O)C(=O)N4)NC(=O)CNC(=O)[C@@H]1CCCN1C(=O)[C@H]([C@@H](C)O)NC(=O)[C@H](CC(N)=O)NC3=O)C(=O)N[C@@H](CO)C(=O)N[C@@H](Cc1c[nH]c3ccccc13)C(=O)N1CCC[C@H]1C(=O)N[C@@H](C(C)C)C(=O)N2", "assay": "HPLC", "test system": "ammonium bicarbonate", "setting": "180 µM, 14 days, pH 9.0, 25 °C, deamidation stability", "endpoint": "remaining peptide", "result": "97.2 ± 0.9%"}
{"Structure (SMILES)": "Clc1cc(Cl)c(-c2cc(Cl)c(Cl)cc2Cl)cc1Cl", "test system": "polyethylene-water partitioning", "setting": "PCB compilation", "how to read": "baseline: maximum over minimum K", "endpoint": "literature range factor", "result": 6}
{"Structure (SMILES)": "CC1(C)[C@H](C(=O)OCc2cccc(Oc3ccccc3)c2)[C@@H]1C=C(Cl)Cl", "test system": "pooled human liver microsomes", "endpoint": "CLint", "result": "0.163 mL/min/mg protein"}
{"Structure (SMILES)": "O=S(=O)(Nc1ccccc1)c1ccc(NC(=S)Nc2ccccc2)cc1", "test system": "male mouse, blood", "setting": "oral, 5 mg/kg daily, 14 days", "endpoint": "potassium level", "result": "8.55 mmol/L"}
{"Structure (SMILES)": "CN1CC[C@@H](c2c(O)cc(O)c3c(=O)cc(-c4ccc(C(F)(F)F)cc4Cl)oc23)[C@@H]1CO", "assay": "refers to: Neutropenia", "test system": "B-cell malignancies", "setting": "oral, 100 mg, intermittent dosing", "endpoint": "patients with adverse event", "result": "0%"}
{"Structure (SMILES)": "[O-][S+]1CCc2nc(N3CCC(c4ncc(Cl)cn4)CC3)nc(NC3(CO)CCC3)c21 (stereo not drawn)", "assay": "refers to: oral hypoaesthesia", "test system": "healthy male humans", "setting": "36 mg single dose", "endpoint": "adverse event incidence", "result": "0%"}
{"Structure (SMILES)": "CN(C)C(=O)c1cc2cnc(Nc3ccc(N4CCNCC4)cn3)nc2n1C1CCCC1", "assay": "refers to: Hepatobiliary toxicity, AESI", "test system": "human, HR+/HER2− advanced breast cancer", "setting": "oral, dose not given, all grades, CTCAE v4.03", "endpoint": "patients with adverse event", "result": "29.3%"}
{"Structure (SMILES)": "CO[C@H]1C[C@@H]2CC[C@@H](C)[C@@](O)(O2)C(=O)C(=O)N2CCCC[C@H]2C(=O)O[C@H]([C@H](C)C[C@@H]2CC[C@@H](OC(=O)NCCOCCOCCOCCOCCOCCOCCOCCOCCC(=O)N3CCc4cc(Cn5nc(-c6ccc7oc(N)nc7c6)c6c(N)ncnc65)ccc4C3)[C@H](OC)C2)C[C@@H](O)[C@H](C)/C=C(\\C)[C@@H](O)[C@@H](OC)C(=O)[C@H](C)C[C@H](C)/C=C/C=C/C=C/1C", "test system": "patients with advanced solid tumours", "setting": "intravenous, 12 mg weekly, any grade", "endpoint": "nausea incidence", "result": "58%"}
{"Structure (SMILES)": "COc1ncccc1-c1cnn2ccc(N3CCN(C(=O)OC(C)C)CC3)nc12", "test system": "rat, thermal hyperalgesia model, plasma", "setting": "oral, 3 mg/kg, 180 min", "endpoint": "drug concentration", "result": "0.29 µM"}
{"Structure (SMILES)": "CCCSc1ccc2nc(NC(=O)OC)[nH]c2c1", "test system": "mouse, blood", "setting": "oral, 50 mg/kg, tolerability, mean", "endpoint": "haematocrit", "result": "39.8%"}
{"Structure (SMILES)": "O=C(Nc1ccccc1)C1CCN(C(=O)Oc2cccnc2)CC1", "assay": "psychotropic effects VAS", "test system": "healthy women", "setting": "20 mg", "how to read": "baseline: pre-dose baseline, direction not given", "endpoint": "change in Anxious score", "result": -0.3}
{"Structure (SMILES)": "Cc1cccc(Cn2nc(C3CC3)c3c(NC(=O)c4cnc5cc(OCCN6CCN(C)CC6)ccn45)cccc32)n1", "assay": "refers to: Diarrhea", "test system": "human pancreatic ductal adenocarcinoma", "setting": "oral, dose not given, all-causality", "endpoint": "adverse events incidence", "result": "14.8%"}
{"Structure (SMILES)": "O[C@H]1CCCN[C@@H]1CCCn1cnc2c(Cl)c(Cl)ccc21", "test system": "healthy humans, plasma", "setting": "oral, 150 mg, together with: nintedanib 150 mg", "endpoint": "Cmax at steady state geometric LS mean", "result": "0.286 µg/mL"}
{"Structure (SMILES)": "COc1cc2c(Oc3ccc4[nH]c(C)cc4c3F)ccnc2cc1OCC1(N)CC1", "test system": "paediatric recurrent refractory sarcoma", "setting": "12 mg", "endpoint": "grade 1 or 2 Diarrhoea", "result": "63.6%"}
{"Structure (SMILES)": "C[C@]1(CO)Cc2ncn(-c3ccc(C#N)c(Cl)c3)c2C(=O)O1", "test system": "healthy Japanese adults, plasma", "setting": "40 mg once daily, dosing interval 24 h", "endpoint": "accumulation ratio of AUC", "result": 1}
{"Structure (SMILES)": "CC(=O)c1c(C)c2cnc(Nc3ccc(C4CCN(CCS(C)(=O)=O)CC4)cn3)nc2n(C2CCCC2)c1=O", "test system": "beagle dog, both sexes, fasted, blood", "setting": "oral gavage, 15 mg/kg, acidified methylcellulose vehicle", "endpoint": "half-life", "result": "6.64 h"}
{"Structure (SMILES)": "CC(C)C[C@H](NC(=O)[C@H](Cc1ccccc1)NC(=O)[C@H](Cc1ccccc1)NC(=O)Cc1ccc(-c2ccccc2)cc1)C(=O)N[C@@H](CCCCN)C(=O)N[C@@H](CCCNC(=N)N)C(=O)N[C@H](C(=O)N[C@@H](Cc1c[nH]c2ccccc12)C(=O)N[C@@H](CCCCN)C(=O)N[C@@H](CCCNC(=N)N)C(=O)O)C(C)C", "test system": "monkey liver microsomes", "endpoint": "hepatic clearance", "result": "2.47 L/h/kg"}
{"note": "Some of these lines once more:"}
{"Structure (SMILES)": "CCN1CCN(Cc2ccc(Nc3ncc(F)c(-c4cc(F)c5nc6n(c5c4)[C@H](C)CCC6)n3)nc2)CC1", "test system": "advanced solid tumour patients", "setting": "dose not given, Phase Ia monotherapy", "endpoint": "Diarrhea incidence, any grade", "result": "54.2%"}
{"Structure (SMILES)": "CN1CCN(c2ccc(Nc3nccc(-c4ccncc4)n3)cc2C(F)(F)F)CC1", "test system": "zebrafish embryos", "setting": "50 µM, 5 days", "endpoint": "toxicity", "result": "5.6 ± 5.6%"}
